Measurements collected from several papers.
Lines come from different studies, so protocols differ. ± marks the error that the study gave.
lasR: Transcriptional activator protein LasR (lasR, Pseudomonas aeruginosa, UniProt P25084)
KLRK1 with ULBP6: NKG2-D type II integral membrane protein, with ULBP6 (KLRK1, Homo sapiens, UniProt P26718)
lecA: PA-I galactophilic lectin (lecA, Pseudomonas aeruginosa, UniProt Q05097)
KCNQ3/KCNQ2: Voltage-gated potassium channel, KQT; KCNQ2(Kv7.2)/KCNQ3(Kv7.3) (KCNQ3/KCNQ2, Homo sapiens, UniProt O43525+O43526)

C[C@H]1[C@H]2CCC[C@]1(c1cccc(O)c1)CCN2CCc1ccccc1  Emax (Oprm1 (Mus musculus, UniProt P42866); GTPγS binding, agonist, radiometric; cell membranes): 20.8%
O=C(Cn1cc(C2CCCCC2)nn1)N[C@H]1CCOC1=O  activation (lasR; reporter gene, agonist; Escherichia coli, DH5α pJN105L/pSC11; 100 µM; reference: OdDHL at same concentration): 1%
CC[C@H](C)[C@@H]1NC(=O)[C@H](Cc2ccc(O)cc2)NC(=O)[C@@H](N)CSSC[C@@H](C(=O)N2CCC[C@H]2C(=O)N[C@@H](CC(C)C)C(=O)NCC(N)=O)NC(=O)[C@H](CC(N)=O)NC(=O)[C@H](CCC(N)=O)NC1=O  Emax (Oxytocin receptor (Macaca mulatta, UniProt P56494); membrane hyperpolarisation; CHO cells): 2270 RFU
CN(C)/C=N/c1ccccc1C(F)(F)F  STD NMR signal (Amyloid-beta precursor protein, amyloid-beta 1-40 oligomers (APP, Homo sapiens, UniProt P05067); binding, STD NMR; highest STD): 0%
CC(=O)N[C@@H](CC(C)C)C(=O)N[C@@H](C)C(=O)N[C@@H](C)C(=O)NN(CCC(=O)N(C)C)C(=O)CBr  kinact/KI (Genome polyprotein, 3C protease (Human hepatitis A virus genotype IB, UniProt P08617, C1543S); inhibitor; Hepatitis A virus): 870 M⁻¹ s⁻¹
CC(C)C[C@@H](N)C(=O)NCC(=O)N[C@H](C)C(=O)N[C@H](CO)C(=O)N[C@H](Cc1c[nH]c2ccccc12)C(=O)N[C@H](Cc1c[nH]cn1)C(=O)N[C@H](CCCNC(=N)N)C(=O)N1CCC[C@@H]1C(=O)N[C@H](CC(=O)O)C(=O)N[C@H](CCCCN)C(=O)N[C@H](CSSC[C@@H](NC(=O)[C@@H](CCCCN)NC(=O)[C@@H](CC(=O)O)NC(=O)[C@H]1CCCN1C(=O)[C@@H](CCCNC(=N)N)NC(=O)[C@@H](Cc1c[nH]cn1)NC(=O)[C@@H](Cc1c[nH]c2ccccc12)NC(=O)[C@@H](CO)NC(=O)[C@@H](C)NC(=O)CNC(=O)[C@H](N)CC(C)C)C(=O)N[C@H](C)C(=O)N[C@H](CC(C)C)C(=O)NCC(=O)N[C@H](Cc1ccc(O)cc1)C(=O)N[C@H](CCC(N)=O)C(=O)N[C@H](CCCCN)C(=O)N[C@H](CCCNC(=N)N)C(=O)N1CCC[C@@H]1C(=O)N[C@H](CC(C)C)C(=O)N1CCC[C@@H]1C(N)=O)C(=O)N[C@H](C)C(=O)N[C@H](CC(C)C)C(=O)NCC(=O)N[C@H](Cc1ccc(O)cc1)C(=O)N[C@H](CCC(N)=O)C(=O)N[C@H](CCCCN)C(=O)N[C@H](CCCNC(=N)N)C(=O)N1CCC[C@@H]1C(=O)N[C@H](CC(C)C)C(=O)N1CCC[C@@H]1C(N)=O  binding decrease (CXCR4 (Homo sapiens, UniProt P61073, D171A); 293 cells; 300 nM, together with: 12G5 antibody 5 µg/mL; reference: wild type): 60%
O=C(N[C@H]1CCOC1=O)c1ccc(-n2cc(-c3ccccc3)nn2)cc1  activation (lasR; reporter gene, agonist; Escherichia coli, DH5α pJN105L/pSC11; 100 µM; reference: OdDHL at same concentration): 0%
O=C1CCC(N2Cc3c(ccc4c3OCC43CCN(Cc4ccccc4)CC3O)C2=O)C(=O)N1 (stereo not shown)  Dmax (CRBN/Zinc finger protein Helios (Homo sapiens, UniProt Q96SW2+Q9UKS7); Helios degradation, degrader, HiBiT; HEK293; 6 h): 39%
CN1C(CCc2ccccc2)CCC1CCc1ccccc1 (stereo not shown)  maximal inhibition (Slc18a2 (Rattus norvegicus, UniProt Q01827); binding; rat whole brain vesicles; together with: [3H]dihydrotetrabenazine): 97 ± 2%
CN(C)C(=O)C(NC(=O)c1ccccc1-c1ccc(C(F)(F)F)cc1)c1cccc(C(F)(F)F)c1 (stereo not shown)  Emax (KLRK1 with ULBP6): 86%
COC(=O)C1C(OC(c2ccc(Cl)cc2)c2ccc(Cl)cc2)CC2CCC1N2C (single isomer, unassigned)  Ki (Adra1a (Rattus norvegicus, UniProt P43140); binding, radioligand displacement; rat submaxillary gland; inactive if below 75% at 10000 nM, together with: [3H]prazosin): inactive
COP(=O)(O)O  relative catalytic efficiency (Alkaline phosphatase PafA (pafA, Elizabethkingia meningoseptica, UniProt Q9KJX5, N100A); Chryseobacterium meningosepticum; pH 8.0; reference: wild type over mutant kcat/KM): 390
CC(=O)NC(Cc1ccc(Br)c(Cl)c1)C(=O)N[C@@H](C)C(=O)N1CCC[C@H]1C(=O)N1CCC[C@H]1C(=O)N[C@@H](CCC(=O)O)C(=O)N[C@@H](Cc1c[nH]cn1)C(=O)N[C@@H](CO)C(=O)N[C@H](C(=O)N[C@@H](C)C(N)=O)[C@@H](C)OP(=O)(O)O (stereo partly shown)  inhibition (NEK1 (Homo sapiens, UniProt Q96PY6); enzyme activity, inhibitor; 10 µM): 4.42%
N[C@@H](CCC(=O)N[C@@H](CS[Se]Cc1ccc(C(=O)Nc2cc(C(F)(F)F)c(Br)c(C(F)(F)F)c2)cc1)C(=O)NCC(=O)O)C(=O)O  selectivity ratio (PTPN5 (Homo sapiens, UniProt P54829); enzyme activity; together with: pNPP, GSH 1 mM; reference: IC50 PTPN5 over mPTPA): 12
CC[C@H](C)[C@H](NC(=O)[C@H](Cc1c[nH]cn1)NC(=O)[C@H](CCCCNC(=O)[C@@H](NC(=O)[C@H](CCCCN)NC(=O)[C@H](Cc1ccccc1)NC(=O)[C@H](CCCCNC(=O)[C@H](CC(C)C)NC(=O)[C@@H]1CCCN1C(=O)[C@H](CCCCN)NC(=O)c1ccc(O[C@@H]2O[C@H](CO)[C@H](O)[C@H](O)[C@H]2O)cc1)NC(=O)[C@H](CC(C)C)NC(=O)[C@@H]1CCCN1C(=O)[C@H](CCCCN)NC(=O)c1ccc(O[C@@H]2O[C@H](CO)[C@H](O)[C@H](O)[C@H]2O)cc1)[C@@H](C)CC)NC(=O)[C@@H](NC(=O)[C@H](CCCCN)NC(=O)[C@H](Cc1ccccc1)NC(=O)[C@H](CCCCNC(=O)[C@H](CC(C)C)NC(=O)[C@@H]1CCCN1C(=O)[C@H](CCCCN)NC(=O)c1ccc(O[C@@H]2O[C@H](CO)[C@H](O)[C@H](O)[C@H]2O)cc1)NC(=O)[C@H](CC(C)C)NC(=O)[C@@H]1CCCN1C(=O)[C@H](CCCCN)NC(=O)c1ccc(O[C@@H]2O[C@H](CO)[C@H](O)[C@H](O)[C@H]2O)cc1)[C@@H](C)CC)C(N)=O  entropy term (−TΔS) (lecA; ITC; pH 7.5, 25 °C): 2.6 ± 1.5 kcal/mol
CN(C)C(=O)[C@@H](NC(=O)c1cnccc1-c1ccc(C(F)(F)F)cc1)c1cccc(C(F)(F)F)c1  maximum inhibition (NKG2-D type II integral membrane protein, with MICA (KLRK1, Homo sapiens, UniProt P26718); ligand binding, inhibitor, TR-FRET; HEK293 expressing NKG2D and DAP10; together with: MICA-Alexa647; reference: positive control): 100%
O=C(CCCC[C@@H]1SC[C@@H]2NC(=O)N[C@@H]21)NCCCCCCCCN1[C@H]2[C@H](O)[C@@H](O)[C@H](O[C@@H]3OC[C@@H](O)[C@H](O)[C@H]3O)C[C@H]21 (stereo partly shown)  kinact (endo-1,4-beta-xylanase (Aspergillus aculeatus, UniProt A0A1L9WG58); covalent inhibitor; pH 5.0, together with: 4MU-β-D-xylobioside): 0.000183 s⁻¹
CN1C(=O)[C@H](Cc2ccccc2)N(C)C(=O)[C@@H]2[C@H]1CCN2Cc1cc(Cl)cc(Cl)c1  maximum inhibition (KLRK1 with ULBP6; ligand binding, inhibitor, TR-FRET; HEK293 expressing NKG2D and DAP10; together with: ULBP6-AF647; reference: positive control): 58%
CCCCC/C=C\C/C=C\C/C=C\C/C=C\CCCC(=O)NC(CO)C(=O)O (stereo in doubt)  maximal conductance (KCNQ3/KCNQ2; two-electrode voltage clamp; Xenopus oocytes; 10 and 100 µM): increased
O=C(Cn1cc(-c2ccccc2)nn1)N[C@H]1CCOC1=O  activation (lasR; reporter gene, agonist; Escherichia coli, DH5α pJN105L/pSC11; 100 µM; reference: OdDHL at same concentration): 5%
NC(CNC(CNC(CC(=O)O)C(=O)O)C(=O)O)C(=O)O (stereo not shown)  inactivation rate constant (blaNDM-1 (Klebsiella pneumoniae, UniProt C7C422); enzyme activity, inactivator; 37 °C, enzyme 50 nM, together with: nitrocefin 20 µM): 0.0062 s⁻¹
CC[C@H](C)[C@H](NC(=O)CN)C(=O)N[C@@H](CC(C)C)C(=O)N[C@@H](CCCCN)C(=O)N[C@@H](Cc1ccccc1)C(=O)N[C@@H](CC(C)C)C(=O)N[C@@H](CCC(=O)O)C(=O)N[C@@H](CO)C(=O)N[C@@H](C)C(=O)N[C@@H](CCCCN)C(=O)N[C@@H](CCCCN)C(=O)N[C@@H](Cc1c[nH]c2ccccc12)C(=O)N[C@@H](CC(C)C)C(=O)N[C@@H](CCC(=O)O)C(=O)N[C@@H](C)C(=O)N[C@@H](Cc1ccccc1)C(=O)N[C@@H](CC(C)C)C(=O)N[C@@H](C)C(=O)N[C@@H](CCC(=O)O)C(=O)N[C@H](C(=O)N[C@@H](CCSC)C(=O)N[C@@H](CC(N)=O)C(=O)N[C@@H](CO)C(=O)O)[C@@H](C)CC  binding free energy (POPC membrane; membrane binding, stopped-flow FRET; mole fraction units, room temperature): -7.4 kcal/mol
Cc1cc(-c2ccc3c(c2)CCC3O)cc(C)c1O (stereo not shown)  SRC3 coactivator binding (estrogen receptor alpha ligand-binding domain, human; TR-FRET; concentration not given): no binding
CNC(=S)N/N=C/c1ccc(OCc2ccccc2)cc1  remaining activity (MAOA (Homo sapiens, UniProt P21397); enzyme activity, inhibitor, absorbance; 10 µM): 91.1%
CC(C)C[C@@H](N)C(=O)NCC(=O)N[C@H](C)C(=O)N[C@H](CO)C(=O)N[C@H](Cc1c[nH]c2ccccc12)C(=O)N[C@H](Cc1c[nH]cn1)C(=O)N[C@H](CCCNC(=N)N)C(=O)N1CCC[C@@H]1C(=O)N[C@H](CC(=O)O)C(=O)N[C@H](CCCCN)C(=O)N[C@H](CCCCN)C(=O)N[C@H](CCCNC(=N)N)C(=O)NCCCCCC(=O)N[C@@H](CCCCN)C(=O)N[C@@H](CCCNC(=N)N)C(=O)N[C@@H](CCCCN)C(=O)N[C@H](C(=O)N[C@@H](CC(N)=O)C(=O)N[C@@H](CC(N)=O)C(=O)N[C@@H](CC(N)=O)C(=O)N1CCC[C@H]1C(=O)N[C@@H](CCCNC(=N)N)C(=O)N[C@H](C(=O)N[C@@H](CS)C(N)=O)[C@@H](C)O)[C@@H](C)O  binding affinity change (CXCR4 (Homo sapiens, UniProt P61073, Y45A); 12G5 antibody binding; 200 nM, mutant Y45A; reference: wild type): decreased
CC(C)P(=[Se])(NP(=[Se])(C(C)C)C(C)C)C(C)C  energy transfer efficiency (Alpha-amylase (Bacillus subtilis, UniProt P00691); binding, FRET; 298 K): 45.2%
CC[C@H](C)[C@H](NC(=O)[C@H](Cc1c[nH]cn1)NC(=O)[C@H](CCCCNC(=O)[C@@H](NC(=O)[C@H](CCCCN)NC(=O)CSC[C@H](NC(=O)[C@H](Cc1ccccc1)NC(=O)[C@H](CCCCNC(=O)[C@H](CC(C)C)NC(=O)[C@@H]1CCCN1C(=O)[C@H](CCCCN)NC(=O)CCS[C@@H]1O[C@H](CO)[C@H](O)[C@H](O)[C@H]1O)NC(=O)[C@H](CC(C)C)NC(=O)[C@@H]1CCCN1C(=O)[C@H](CCCCN)NC(=O)C[C@@H]1O[C@@H](C)[C@@H](O)[C@@H](O)[C@@H]1O)C(N)=O)[C@@H](C)CC)NC(=O)[C@@H](NC(=O)[C@H](CCCCN)NC(=O)CSC[C@H](NC(=O)[C@H](Cc1ccccc1)NC(=O)[C@H](CCCCNC(=O)[C@H](CC(C)C)NC(=O)[C@@H]1CCCN1C(=O)[C@H](CCCCN)NC(=O)CCS[C@@H]1O[C@H](CO)[C@H](O)[C@H](O)[C@H]1O)NC(=O)[C@H](CC(C)C)NC(=O)[C@@H]1CCCN1C(=O)[C@H](CCCCN)NC(=O)C[C@@H]1O[C@@H](C)[C@@H](O)[C@@H](O)[C@@H]1O)C(N)=O)[C@@H](C)CC)C(N)=O  relative potency per galactoside (lecA; binding, isothermal titration calorimetry; divided by galactoside copies; reference: monovalent galactoside KD over ligand KD): 73
COc1cc2c(cc1OC)-c1c(OC)c(OC)cc3c1[C@H](C2)N(C)CC3  cAMP generation (serotonin receptor-like protein (Schistosoma mansoni, UniProt A0A173FEI8); inhibitor, GloSensor cAMP; HEK293 expressing target; concentration not given): inhibited
O=[N+]([O-])c1ccc(OP(=O)(O)O)cc1  kcat (Alkaline phosphatase PafA (pafA, Elizabethkingia meningoseptica, UniProt Q9KJX5, R164A); substrate; pH 8.0): 6.6 s^–1
CCN(Cc1ccccc1)C(=O)CCc1nc(CN2CCN(C(=O)Cc3ccc(OC)c(OC)c3)CC2)no1  current fold increase (KCNQ3/KCNQ2; potassium current, opener, whole-cell patch clamp; CHO stable; 10 µM; reference: control): 1.23 ± 0.04
C[C@@]1(O)CC[C@H]2[C@H](CC[C@@H]3[C@@H]2CC[C@]2(C)[C@@H](C(=O)Cn4cccn4)CC[C@@H]32)C1  PKA activation (Membrane progesterone receptor epsilon (Paqr9, Mus musculus, UniProt Q6TCG2); pPKA/PKA immunoblot; MDA-MB-231 expressing Paqr9-GFP; 30 nM, 20 min; reference: control): 98.2 ± 8.41%

Repeated from above:
CCCCC/C=C\C/C=C\C/C=C\C/C=C\CCCC(=O)NC(CO)C(=O)O (stereo in doubt)  maximal conductance (KCNQ3/KCNQ2; two-electrode voltage clamp; Xenopus oocytes; 10 and 100 µM): increased
O=C(Cn1cc(-c2ccccc2)nn1)N[C@H]1CCOC1=O  activation (lasR; reporter gene, agonist; Escherichia coli, DH5α pJN105L/pSC11; 100 µM; reference: OdDHL at same concentration): 5%
